Assay results of several laboratories.
A part holds a random share of what one study measured.

Block 1
Target: Centromere-binding protein 1, full length, N-terminal tag (CBF1, Saccharomyces cerevisiae, UniProt P17106, residues 1-351)
Sequence of UniProt P17106 (whole entry, looked up): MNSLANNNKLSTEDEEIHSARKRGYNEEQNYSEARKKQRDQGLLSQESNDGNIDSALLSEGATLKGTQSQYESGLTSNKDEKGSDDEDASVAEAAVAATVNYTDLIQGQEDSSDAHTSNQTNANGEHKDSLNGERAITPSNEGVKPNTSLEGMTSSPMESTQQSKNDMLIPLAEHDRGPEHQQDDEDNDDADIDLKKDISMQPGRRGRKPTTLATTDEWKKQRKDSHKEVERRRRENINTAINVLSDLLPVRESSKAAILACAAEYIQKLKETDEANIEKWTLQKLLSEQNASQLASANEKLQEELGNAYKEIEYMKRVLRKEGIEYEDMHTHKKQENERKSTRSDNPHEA
Technique: protein-binding microarray
Form: double-stranded DNA, one strand shown
Medium: in vitro
Concentration: 0.8 µM
Notes: whole 60-bp probe, no competitor
Direction: higher = stronger binding
Measurement: fluorescence intensity
CTACAAGTTCCGGGTAGTCACATGGAAACAATGTTCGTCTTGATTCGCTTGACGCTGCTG: 2880 a.u.
GAATGCTGTTCTTTCTTCATGATGCATTATGTATAGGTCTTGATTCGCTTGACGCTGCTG: 548 a.u.
TGTACGAAGCTATGTCACCCCGGTATAGTAGTTAGGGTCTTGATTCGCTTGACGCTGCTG: 504 a.u.
GAATCCCAGCCAGCCTTTCTTGTATTTTGAATGTAGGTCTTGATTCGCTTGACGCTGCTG: 495 a.u.
CTAACTAATCTCCATCACGTACCGTACCGTCTTTTCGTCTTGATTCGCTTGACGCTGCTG: 598 a.u.
CTAGCGGGTTGAATCCACGTTAACGTTCCACTATTCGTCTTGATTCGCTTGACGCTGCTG: 513 a.u.

Block 2
Target: Prothrombin, mature alpha-thrombin (F2, Homo sapiens, UniProt P00734)
Technique: aptamer microarray, sandwich
Form: DNA with 2'F-ANA
Medium: in vitro
Concentration: 200 nM
Notes: whole 15-mer aptamer, many near background
With: Cy3 exosite-II aptamer, 400 nM
Direction: higher = stronger binding
Measurement: mean fluorescence intensity
Strand: GGTTGGTGTGGTTGG
2'F-ANA at 3 5 8 12 13: 275 a.u.
2'F-ANA at 3 6 7 9 10 12 14: 453 a.u.
2'F-ANA at 3 4 7 8 9 12 14 15: 392 a.u.
2'F-ANA at 2 5 9 10 12 14: 44.1 a.u.
2'F-ANA at 1 2 4 5 8 9 10 12 13: 48.6 a.u.

Block 3
Target: Histone acetyltransferase KAT6A, winged helix 2, GST fusion (KAT6A, Homo sapiens, UniProt Q92794, residues 85-181)
Technique: protein binding microarray
Form: double-stranded DNA, one strand shown
Medium: in vitro
Concentration: not given
Notes: 8-mer, flanks averaged, mean of 2 arrays, mostly near background
Reference: not given
Direction: higher = stronger binding
Measurement: E-score
Target sequence (chain): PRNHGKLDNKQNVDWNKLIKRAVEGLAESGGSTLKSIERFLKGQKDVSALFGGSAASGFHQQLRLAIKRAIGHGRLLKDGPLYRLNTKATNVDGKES
GCGATGAC: 0.0217
AGGGTGCC: -0.0745
ATTCTCCG: -0.0693
AGCCGTGG: -0.0387
AAGCGAGA: -0.0352

Mixed results
PhoQ, residues 284 288 289 292 302 303 SSTLLI — fold induction (PhoP, residues 12 14 15 18 19 TQAML (Escherichia coli, UniProt P23836); Sort-seq, measured: YFP reporter; E. coli; PhoQ-PhoP variant library, with: 10 µM Mg2+; reference: high Mg2+ state, higher = stronger signaling): 22

A few entries again (block 2):
2'F-ANA at 3 4 7 8 9 12 14 15: 392 a.u.
2'F-ANA at 2 5 9 10 12 14: 44.1 a.u.
